{"data": "Published values collected from several papers", "CDK3 with cyclin E": "Cyclin-dependent kinase 3, with cyclin E (CDK3, Homo sapiens, UniProt Q00526)", "CDK3": "Cyclin-dependent kinase 3 (CDK3, Homo sapiens, UniProt Q00526)", "note": "Each line is one published result; not all experiments were run side by side. Several values in a cell are separate wells, animals, samples, runs or records.", "sequence of UniProt Q00526 (whole entry, looked up)": "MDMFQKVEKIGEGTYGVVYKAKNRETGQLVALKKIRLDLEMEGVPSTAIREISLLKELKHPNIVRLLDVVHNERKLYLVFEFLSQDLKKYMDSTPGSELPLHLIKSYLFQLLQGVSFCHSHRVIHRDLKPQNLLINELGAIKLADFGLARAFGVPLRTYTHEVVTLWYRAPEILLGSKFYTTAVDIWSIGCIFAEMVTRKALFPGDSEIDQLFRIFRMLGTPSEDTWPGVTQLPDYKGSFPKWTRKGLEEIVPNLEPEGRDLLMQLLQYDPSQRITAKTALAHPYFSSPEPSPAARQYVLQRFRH"}
{"SMILES": "NC(=O)[C@@H](O)C[C@H]1CCc2sc3ncnc(O[C@H]4CC[C@H](N5CCOCC5)CC4)c3c21", "target": "CDK3 with cyclin E", "assay": "enzyme activity, inhibitor", "conditions": "10 µM", "quantity": "inhibition", "value": "9%"}
{"SMILES": "CCc1nnc(Nc2cnc([C@@H]3CCCN(C(=O)CCc4cccnc4)C3)cn2)s1", "target": "CDK3", "assay": "enzyme activity, inhibitor, ADP detection", "conditions": "1 µM", "quantity": "activity vs control", "value": "97%"}
{"SMILES": "CC(C)=CC1OC(C)(C)C2C=C3C(=O)C(Cl)=CC(O)C3C3C(O)C4OC4C(=O)C132 (stereo not drawn)", "target": "CDK3", "assay": "cell-free assay, competition with immobilised ligand", "conditions": "10 µM", "quantity": "remaining binding", "value": "98%"}
{"SMILES": "O=C(Cc1ccc(OCc2ccccc2)cc1)NC1(C(=O)O)CCN(C(=O)c2ccc(-c3cccc(Cl)c3)cc2)CC1", "target": "CDK3 with cyclin E", "assay": "enzyme activity, inhibitor", "conditions": "10 µM", "quantity": "activity vs control", "value": "132%"}
{"SMILES": "COc1ccc(NC(=O)Nc2ccc3c(c2)C(=O)N(C(C)CO)CC(C)C(CN(C)Cc2ccc4c(c2)OCO4)O3)cc1 (stereo not drawn)", "target": "CDK3", "assay": "binding, competition with immobilised ligand", "conditions": "10 µM", "quantity": "remaining binding", "value": "76%"}
{"SMILES": "CC(=O)N1c2ccc(-c3ccc(CNC(=O)c4cn5cc(-c6cnc(N)nc6)nc(N6CCOCC6)c5n4)cc3)cc2CC[C@@H]1C", "target": "CDK3", "assay": "KINOMEscan", "conditions": "10 µM", "quantity": "remaining binding", "value": "100%"}
{"SMILES": "CN1C[C@@H](c2c[nH]c3cc(Br)ccc23)NC[C@@H]1c1c[nH]c2cc(Br)ccc12", "target": "Cyclin-dependent kinase 3, with cyclin C (CDK3, Homo sapiens, UniProt Q00526)", "assay": "enzyme activity, inhibitor", "conditions": "10 µM", "quantity": "remaining activity", "value": "104%"}
{"SMILES": "C=CC(=O)Nc1cccc(-c2cnc3[nH]cc(C(=O)NC(C)(C)C)c3n2)c1", "target": "CDK3 with cyclin E", "assay": "kinase activity", "conditions": "0.1 µM", "quantity": "inhibition", "value": "13% and 11%"}
{"SMILES": "CNC(=O)C[C@H](Cc1ccc(C#N)cc1)NC(=O)c1cc(-c2ccc(CN[C@H](C)c3ccc(C)cc3)o2)ccc1Cl", "target": "CDK3 with cyclin E", "assay": "enzyme activity, inhibitor", "conditions": "1 µM", "quantity": "activity vs control", "value": "107%"}
{"SMILES": "Cc1ccc(-c2c(/C=C(\\C#N)C(=O)NC(C)C)n(CCCO)c3ncnc(N)c23)cc1", "target": "CDK3", "assay": "cell-free assay, competition with immobilised ligand", "conditions": "1 µM", "quantity": "remaining binding", "value": "100%"}
{"SMILES": "CN1CCN(Cc2ccc(NC(=O)c3cccc(C#Cc4cnc(N)c5ncccc45)c3)cc2C(F)(F)F)CC1", "target": "CDK3", "assay": "cell-free assay, competition with immobilised ligand", "conditions": "50 nM", "quantity": "remaining binding", "value": "100%"}
{"SMILES": "C=C1CCCCCCCCCC(CO)C1=O (stereo not drawn)", "target": "CDK3", "assay": "cell-free assay, competition with immobilised ligand", "conditions": "10 µM", "quantity": "remaining binding", "value": "100%"}
{"SMILES": "C=CC(=O)N1CCc2ccc(-n3c(=O)ccc4cnc5ccc(-c6cnn(C)c6)cc5c43)cc21", "target": "CDK3", "assay": "KINOMEscan", "conditions": "1 µM", "scale": "relative to: DMSO control", "quantity": "remaining binding", "value": "100%"}
{"SMILES": "CNC1C[S+]2CC[S+]3CC[S+](C1)[Ru-4]321([N]=C=S)[n]2c3ccc(OC)cc3c3c4c(c5cc(F)c[n+]1c5c32)C(=O)NC4=O (stereo not drawn)", "target": "CDK3", "assay": "KinomeScan", "conditions": "0.1 µM", "scale": "relative to: untreated", "quantity": "remaining binding", "value": "95%"}
{"SMILES": "COc1c(OCCCN2CCOCC2)ccc2c1N=C(NC(=O)c1cnc(N)nc1)N1CCN=C21", "target": "CDK3 with cyclin E", "assay": "kinase activity, inhibitor", "conditions": "1 µM", "scale": "relative to: untreated control", "quantity": "remaining activity", "value": "109%"}
{"SMILES": "Cc1cccc(O[C@H]2CCC[C@@H](C(C)CNCc3ccncc3)C2)c1 (relative stereo)", "target": "CDK3 with cyclin E", "assay": "kinase activity, kinome panel screening", "conditions": "1 µM", "quantity": "inhibition", "value": "1%"}
{"SMILES": "COc1cc(Nc2nccc(-c3cnn4nc(OC)ccc34)n2)cc(C(F)(F)F)c1", "target": "CDK3", "assay": "binding, competition with immobilised ligand", "conditions": "1 µM", "quantity": "remaining binding", "value": "97%"}
{"SMILES": "COCC12C(=O)NC3C4(C(OC)CC1O)C1CC5(O)C(OC)C(O)C(OC(C)=O)(C1C5OC(=O)c1ccccc1)C3(O)C(OC)C24 (stereo not drawn)", "target": "CDK3 with cyclin E", "assay": "kinase activity, inhibitor, ProQinase kinase profiling", "conditions": "25 µM", "scale": "relative to: control", "quantity": "remaining activity", "value": "89% and 109%"}
{"SMILES": "Cc1cc(C)nc(Nc2ccc([C@@H]3CCCN(C(=O)/C=C/c4csc(C)n4)C3)nc2)n1", "target": "CDK3", "assay": "enzyme activity, inhibitor, ADP detection", "conditions": "1 µM", "quantity": "activity vs control", "value": "101%"}
{"SMILES": "C=CC(=O)N1CCCC(n2c(=O)c3ncccc3n(Cc3ccc(Oc4ccccc4)cc3)c2=O)C1 (stereo not drawn)", "target": "CDK3", "assay": "cell-free assay, competition with immobilised ligand", "conditions": "1 µM", "quantity": "remaining binding", "value": "95%"}
{"SMILES": "CN1CC[C@@H](COc2cnc(C#N)cc2-c2ccn3nc(NC(=O)C4CC4)cc3c2)C1", "target": "CDK3 with cyclin E", "assay": "enzyme activity, inhibitor", "conditions": "1 µM", "quantity": "inhibition", "value": "3%"}
{"note": "A few entries again:"}
{"SMILES": "C=CC(=O)Nc1cccc(-c2cnc3[nH]cc(C(=O)NC(C)(C)C)c3n2)c1", "target": "CDK3 with cyclin E", "assay": "kinase activity", "conditions": "0.1 µM", "quantity": "inhibition", "value": "13% and 11%"}
{"SMILES": "CCc1nnc(Nc2cnc([C@@H]3CCCN(C(=O)CCc4cccnc4)C3)cn2)s1", "target": "CDK3", "assay": "enzyme activity, inhibitor, ADP detection", "conditions": "1 µM", "quantity": "activity vs control", "value": "97%"}
{"SMILES": "C=CC(=O)N1CCCC(n2c(=O)c3ncccc3n(Cc3ccc(Oc4ccccc4)cc3)c2=O)C1 (stereo not drawn)", "target": "CDK3", "assay": "cell-free assay, competition with immobilised ligand", "conditions": "1 µM", "quantity": "remaining binding", "value": "95%"}
